Results of several laboratories.
Lines come from different studies, so protocols differ. Values joined by “and” are separate records of one study, mostly repeats; a detail may differ. ± gives the spread as reported.
CALM1 Ca2+-bound N-lobe: Calmodulin-1, Ca2+-bound N-lobe (CALM1, Homo sapiens, UniProt P0DP23)
ESR1: Estrogen receptor (ESR1, Homo sapiens, UniProt P03372)
Chain of UniProt P03372 (whole entry, looked up): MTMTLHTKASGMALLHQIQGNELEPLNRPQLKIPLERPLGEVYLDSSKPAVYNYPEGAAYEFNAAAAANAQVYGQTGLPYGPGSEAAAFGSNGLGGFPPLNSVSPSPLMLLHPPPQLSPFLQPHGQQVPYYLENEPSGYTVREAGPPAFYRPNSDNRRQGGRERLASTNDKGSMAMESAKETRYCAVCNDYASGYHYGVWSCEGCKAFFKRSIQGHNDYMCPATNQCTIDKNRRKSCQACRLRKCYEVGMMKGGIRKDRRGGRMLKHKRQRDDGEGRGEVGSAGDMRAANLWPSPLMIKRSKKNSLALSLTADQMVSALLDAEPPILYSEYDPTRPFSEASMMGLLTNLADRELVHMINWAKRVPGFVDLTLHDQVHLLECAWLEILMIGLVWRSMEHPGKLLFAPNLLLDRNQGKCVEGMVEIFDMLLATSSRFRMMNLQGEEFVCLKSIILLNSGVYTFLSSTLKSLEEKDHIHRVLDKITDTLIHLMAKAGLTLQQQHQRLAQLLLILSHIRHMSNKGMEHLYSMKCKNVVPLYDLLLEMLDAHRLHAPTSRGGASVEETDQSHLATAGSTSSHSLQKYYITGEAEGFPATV
Genome polyprotein NS3 helicase domain: Genome polyprotein, NS3 helicase domain (Hepatitis C virus genotype 1b, UniProt Q9WMX2)
WD repeat-containing protein 91 WD40 domain, residues 392–747: WD repeat-containing protein 91, WD40 domain, residues 392–747 (Homo sapiens, UniProt A4D1P6)
Chain of UniProt A4D1P6 (whole entry, looked up): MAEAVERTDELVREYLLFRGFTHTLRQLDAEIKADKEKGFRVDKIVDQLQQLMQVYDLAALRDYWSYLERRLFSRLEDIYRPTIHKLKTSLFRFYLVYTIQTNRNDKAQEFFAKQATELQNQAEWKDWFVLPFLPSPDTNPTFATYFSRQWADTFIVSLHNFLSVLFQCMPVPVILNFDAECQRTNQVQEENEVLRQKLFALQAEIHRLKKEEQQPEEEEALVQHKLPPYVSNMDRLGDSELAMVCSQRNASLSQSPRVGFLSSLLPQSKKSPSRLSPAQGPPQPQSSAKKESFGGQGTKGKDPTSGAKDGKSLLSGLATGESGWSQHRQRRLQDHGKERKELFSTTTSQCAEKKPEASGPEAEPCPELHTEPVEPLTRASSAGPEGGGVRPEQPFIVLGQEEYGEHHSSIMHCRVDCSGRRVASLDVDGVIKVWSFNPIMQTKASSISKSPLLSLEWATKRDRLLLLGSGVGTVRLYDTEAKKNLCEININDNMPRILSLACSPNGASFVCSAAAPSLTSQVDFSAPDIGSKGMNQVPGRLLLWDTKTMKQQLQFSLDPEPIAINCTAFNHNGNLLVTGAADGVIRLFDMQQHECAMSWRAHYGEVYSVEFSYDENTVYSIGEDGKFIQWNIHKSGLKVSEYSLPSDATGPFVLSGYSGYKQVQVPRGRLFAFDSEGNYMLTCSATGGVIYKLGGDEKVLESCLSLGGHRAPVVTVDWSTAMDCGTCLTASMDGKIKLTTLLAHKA
Chain of UniProt P18669 (whole entry, looked up): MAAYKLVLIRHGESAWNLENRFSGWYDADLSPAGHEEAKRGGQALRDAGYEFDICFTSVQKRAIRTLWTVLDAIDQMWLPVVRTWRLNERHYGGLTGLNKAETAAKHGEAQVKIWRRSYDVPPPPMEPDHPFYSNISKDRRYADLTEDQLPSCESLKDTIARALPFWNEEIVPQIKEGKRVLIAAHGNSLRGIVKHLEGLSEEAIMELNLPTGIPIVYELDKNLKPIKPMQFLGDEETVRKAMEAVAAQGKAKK
Chain of UniProt Q9NYA1 (whole entry, looked up): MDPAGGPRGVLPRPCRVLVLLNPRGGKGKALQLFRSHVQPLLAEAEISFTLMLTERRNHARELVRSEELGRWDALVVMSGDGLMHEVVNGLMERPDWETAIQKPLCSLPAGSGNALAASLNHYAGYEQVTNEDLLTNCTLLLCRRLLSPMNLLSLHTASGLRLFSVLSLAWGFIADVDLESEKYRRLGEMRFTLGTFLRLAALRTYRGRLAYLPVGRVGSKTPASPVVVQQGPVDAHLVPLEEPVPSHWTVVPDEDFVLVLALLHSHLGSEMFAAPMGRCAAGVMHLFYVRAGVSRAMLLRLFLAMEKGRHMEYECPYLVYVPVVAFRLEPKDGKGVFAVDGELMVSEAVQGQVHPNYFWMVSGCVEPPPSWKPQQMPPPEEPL

Oc1ccc(/C=C/c2cc(O)cc(O)c2)cc1 — ΔG of binding (O-methyltransferase (Sorghum bicolor, UniProt A0A1B6PFV1); concentration not given, added: ADN+): -8.41 kcal/mol
CC1CCCN(C(=O)c2cc3ncccn3n2)C1 (stereo not shown) — log fold enrichment (SPRY domain-containing SOCS box protein 2, SPRY domain (Homo sapiens, UniProt Q99619); binding, affinity selection mass spectrometry; baseline: other proteins in batch): -0.126
N#Cc1cccc2c1CC[C@H]2NC(=O)c1ccc(S(=O)(=O)NCc2ccco2)cc1 — binding (WD repeat-containing protein 91, residues 392–747 (Homo sapiens, UniProt A4D1P6); SPR dose-response titration; concentration not given, 1:1 binding model): 78% and 81%
O=C(O)C1CCCNC1 (stereo not shown) — normalised MST signal (Sodium- and chloride-dependent taurine transporter (SLC6A6, Homo sapiens, UniProt P31641, Y138A); binding, microscale thermophoresis; 62.5 µM, room temperature, added: 50 nM labelled protein; higher = more binding): 0.64
CC[C@H](C)[C@H](NC(=O)[C@H](CCCCN)NC(=O)CNC(=O)[C@@H](NC(=O)[C@@H](NC(=O)[C@H](CCSC)NC(=O)[C@H](Cc1c[nH]cn1)NC(=O)CN)[C@@H](C)O)C(C)C)C(=O)N[C@@H](Cc1ccc(O)cc1)C(=O)N[C@@H](C)C(=O)N[C@@H](C)C(=O)N[C@@H](CCSC)C(=O)N[C@@H](CCSC)C(=O)N[C@H](C(=O)N[C@@H](CCSC)C(=O)N[C@@H](CCC(=O)O)C(=O)N[C@@H](Cc1ccc(O)cc1)C(=O)N[C@@H](C)C(=O)N[C@@H](CCCNC(=N)N)C(=O)N[C@@H](CCC(N)=O)C(=O)N[C@@H](CO)C(=O)N[C@@H](CCCCN)C(=O)N[C@@H](C)C(=O)N[C@@H](CCCCN)C(=O)N[C@@H](CCCCN)C(=O)N[C@@H](CC(C)C)C(=O)N[C@@H](CCC(N)=O)C(=O)N[C@@H](C)C(=O)N[C@@H](CCSC)C(=O)N[C@@H](CCCNC(=N)N)C(=O)O)[C@@H](C)CC — ΔS (CALM1 Ca2+-bound N-lobe; binding, isothermal titration calorimetry; pH 7.4, 15 °C, N-lobe, CaV2.1 IQ domain, added: Ca2+): 18 ± 1 cal/mol/K
O=C(COP(=O)(O)O)[C@@H](O)[C@H](O)[C@H](O)COP(=O)(O)O — enzyme activity (Phosphoglycerate mutase 1 (Homo sapiens, UniProt P18669); activator, sugar phosphate screen; concentration not given; baseline: untreated control): 236% and 224% and 209%
COc1cc(-c2oc3cc(O)cc(O)c3c(=O)c2O)ccc1O — selectivity ratio (ESR1; array formation; PRL-HeLa; baseline: EC50 ERβ over EC50 ERα): 0.55
CC[C@H](C)[C@H](NC(=O)[C@H](CCSC)NC(=O)[C@H](CCSC)NC(=O)[C@H](C)NC(=O)[C@H](C)NC(=O)[C@H](Cc1ccc(O)cc1)NC(=O)[C@H](C)NC(=O)[C@H](CCCCN)NC(=O)CNC(=O)[C@@H](NC(=O)[C@@H](NC(=O)[C@H](CCSC)NC(=O)[C@H](Cc1c[nH]cn1)NC(=O)CN)[C@@H](C)O)C(C)C)C(=O)N[C@@H](CCSC)C(=O)N[C@@H](CCC(=O)O)C(=O)N[C@@H](Cc1ccc(O)cc1)C(=O)N[C@@H](Cc1ccc(O)cc1)C(=O)N[C@@H](CCCNC(=N)N)C(=O)N[C@@H](CCC(N)=O)C(=O)N[C@@H](CO)C(=O)N[C@@H](CCCCN)C(=O)N[C@@H](C)C(=O)N[C@@H](CCCCN)C(=O)N[C@@H](CCCCN)C(=O)N[C@@H](CC(C)C)C(=O)N[C@@H](CCC(N)=O)C(=O)N[C@@H](C)C(=O)N[C@@H](CCSC)C(=O)N[C@@H](CCCNC(=N)N)C(=O)O — ΔH (CALM1 Ca2+-bound N-lobe; binding, isothermal titration calorimetry; pH 7.4, 15 °C, N-lobe, CaV2.1 IQ domain, added: Ca2+): -4.15 ± 0.05 kcal/mol
C=CC(=O)Nc1cc(NC(=O)c2cnn(-c3ccccc3F)c2)ccc1F — FP signal (14-3-3 protein sigma, with ERα phosphopeptide (SFN, Homo sapiens, UniProt P31947); binding, fluorescence polarization; covalent ligand screen, added: phosphorylated ERalpha peptide; baseline: control): 97.3%
CC(=O)[C@H]1CC[C@H]2[C@@H]3CC=C4C[C@@H](OS(=O)(=O)[O-])CC[C@]4(C)[C@H]3CC[C@]12C.[Na+] — inhibition (Genome polyprotein NS3 helicase domain; DNA binding, inhibitor; hepatitis C virus; 100 µM, added: Cy5-dT15 DNA): 1%
N#Cc1ccc2[nH]cc(CCCCN3CCN(c4ccc5oc(C(N)=O)cc5c4)CC3)c2c1 — Hill coefficient (Sodium-dependent serotonin transporter (SLC6A4, Homo sapiens, UniProt P31645, F556A); [3H]5-HT uptake, inhibitor; COS-7): 1.23 ± 0.16
Brc1c(Br)c(Br)c2[nH]cnc2c1Br — inhibition (Genome polyprotein NS3 helicase domain; DNA binding, inhibitor; hepatitis C virus; 100 µM, added: Cy5-dT15 DNA): 0%
C=CC(C)(C)c1cc(/C=C/C(=O)c2ccc(O)cc2)c(OC)cc1O — selectivity ratio (ESR1; array formation; PRL-HeLa; baseline: EC50 ERβ over EC50 ERα): 5.52
Nc1ncnc2c1ncn2[C@@H]1O[C@H](COP(=O)(O)OP(=O)(O)OP(=O)(O)O)[C@@H](O)[C@H]1O — Km (Creatine kinase U-type, mitochondrial (CKMT1A, Homo sapiens, UniProt P12532, E264A); substrate, ADP-Glo luminescence; pH 8.5, forward reaction, E226A mutant, added: second substrate in excess): 230 ± 30 µM
O=C(O)c1cc(O)c(O)c(O)c1 — delta Tm (Uncharacterized protein (Chromohalobacter israelensis, UniProt Q1QT90); binder, thermal shift): 2.2 °C
N#CC1CCN(C(=O)c2ccc(CNC(=O)OCc3ccccc3)cc2)CC1 — SPR response (WD repeat-containing protein 91 WD40 domain, residues 392–747; binding, SPR single-concentration screen; 45 µM): 0.7 RU and -1.7 RU
N=C(N)NC(=O)c1nc(Cl)c(N)nc1N — inhibition (Genome polyprotein NS3 helicase domain; DNA binding, inhibitor; hepatitis C virus; 100 µM, added: Cy5-dT15 DNA): 1%
Cn1c(=O)c2[nH]cnc2n(C)c1=O — activation (Glutamate receptor 2 (Homo sapiens, UniProt P42262); ion current, agonist, SyncroPatch patch clamp; HEK293; 10 µM): 2%
NC(=O)NCCC[C@H](N)C(=O)O — product formation (N-alpha-acetyltransferase 80 (NAA80, Homo sapiens, UniProt Q93015); substrate, DTNB; 2 mM, 30 min, 37 °C, added: acetyl-CoA 500 µM): -0.48 µM
COCCOC(=O)NC1CCN(c2ncnc3c2nc(-c2ccccc2Cl)n3-c2ccc(Cl)cc2)CC1 — selectivity ratio (Cannabinoid receptor 1 (CNR1, Homo sapiens, UniProt P21554); binding, [3H]CP55940 displacement; baseline: Ki CB2 over Ki CB1): > 200
N#Cc1cccc2c1CC[C@H]2NC(=O)c1ccc(Nc2ncnc3ccccc23)cc1 — binding (WD repeat-containing protein 91 WD40 domain, residues 392–747; SPR; 45 µM): 94% and 75%
CCCCCCCCc1ccc([C@H]2CC[C@H]([N+](C)(C)CCC)CC2)cc1.[I-] — Ki/Km ratio (Sphingosine kinase 1 (SPHK1, Homo sapiens, UniProt Q9NYA1); inhibitor, radiometric flash-plate; cell lysate; added: sphingosine 10 µM): 2.2
CCCCSC[C@H]1CN(Cc2c[nH]c3c(N)ncnc23)C[C@@H]1O — k4 (Aminodeoxyfutalosine nucleosidase (Helicobacter pylori, UniProt Q9ZMY2); radiolabel chase ultrafiltration; pH 7.4, inhibitor off-rate): 0.015 min⁻¹
O=c1nc(SCc2cc(F)cc(C(F)(F)F)c2)nc(SCc2csc3ccc(Cl)cc23)[nH]1 — relaxed DNA (DNA topoisomerase 2-alpha (TOP2A, Homo sapiens, UniProt P11388); DNA relaxation; 15.6 µM, replicate 1): 0%
CCOC(=O)[C@]12CC1/C(=N\O)c1ccccc1O2 (mixture of isomers) — inhibition (Genome polyprotein NS3 helicase domain; DNA binding, inhibitor; hepatitis C virus; 100 µM, added: Cy5-dT15 DNA): 0%
CC1(C)C(/C=C/C=C2/N(CCCc3ccccc3)c3ccc(Cl)cc3C2(C)C)=[N+](CCCc2ccccc2)c2ccc(Cl)cc21.[Br-] — Hill coefficient (Protein arginine N-methyltransferase 3 (PRMT3, Homo sapiens, UniProt O60678); inhibitor, filter binding; added: R4 peptide substrate): 6.54
C[C@]12CCC(=O)C=C1CC[C@@H]1[C@@H]2C(=O)C[C@@]2(C)[C@H]1CC[C@]2(O)C(=O)CO — inhibition (Genome polyprotein NS3 helicase domain; DNA binding, inhibitor; hepatitis C virus; 100 µM, added: Cy5-dT15 DNA): 1%
Nc1ncnc2c1ncn2[C@@H]1O[C@H](COP(=O)(O)CP(=O)(O)OP(=O)(O)O)[C@@H](O)[C@H]1O — calcium influx (P2X purinoceptor 1 (P2RX1, Homo sapiens, UniProt P51575); calcium influx; 10 nM; baseline: ionomycin response): 0%

Some of these lines once more:
Cn1c(=O)c2[nH]cnc2n(C)c1=O — activation (Glutamate receptor 2 (Homo sapiens, UniProt P42262); ion current, agonist, SyncroPatch patch clamp; HEK293; 10 µM): 2%
NC(=O)NCCC[C@H](N)C(=O)O — product formation (N-alpha-acetyltransferase 80 (NAA80, Homo sapiens, UniProt Q93015); substrate, DTNB; 2 mM, 30 min, 37 °C, added: acetyl-CoA 500 µM): -0.48 µM
COCCOC(=O)NC1CCN(c2ncnc3c2nc(-c2ccccc2Cl)n3-c2ccc(Cl)cc2)CC1 — selectivity ratio (Cannabinoid receptor 1 (CNR1, Homo sapiens, UniProt P21554); binding, [3H]CP55940 displacement; baseline: Ki CB2 over Ki CB1): > 200
